Results collected from several papers.
Protocols differ between the studies behind these lines.
Form: double-stranded DNA, one strand shown
pmiR 1-240: pmiR fragment (Pseudomonas aeruginosa)
vfr 1-214: vfr 1-214 (Pseudomonas syringae)
T1: cbrB residues 1-471 (Pseudomonas stutzeri); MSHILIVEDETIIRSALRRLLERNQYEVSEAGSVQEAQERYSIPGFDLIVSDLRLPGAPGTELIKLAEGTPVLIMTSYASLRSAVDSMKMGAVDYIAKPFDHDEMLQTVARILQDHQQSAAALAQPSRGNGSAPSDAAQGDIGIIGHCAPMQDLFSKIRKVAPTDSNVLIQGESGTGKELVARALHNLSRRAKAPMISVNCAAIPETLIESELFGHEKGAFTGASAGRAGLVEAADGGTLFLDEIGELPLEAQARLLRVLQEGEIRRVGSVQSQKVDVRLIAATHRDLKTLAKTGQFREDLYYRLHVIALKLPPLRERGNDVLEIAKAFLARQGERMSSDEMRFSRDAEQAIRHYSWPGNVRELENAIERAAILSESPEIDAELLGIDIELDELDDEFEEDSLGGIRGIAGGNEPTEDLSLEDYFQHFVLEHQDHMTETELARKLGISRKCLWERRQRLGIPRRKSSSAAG
T2: fruR (Faecalibacterium prausnitzii); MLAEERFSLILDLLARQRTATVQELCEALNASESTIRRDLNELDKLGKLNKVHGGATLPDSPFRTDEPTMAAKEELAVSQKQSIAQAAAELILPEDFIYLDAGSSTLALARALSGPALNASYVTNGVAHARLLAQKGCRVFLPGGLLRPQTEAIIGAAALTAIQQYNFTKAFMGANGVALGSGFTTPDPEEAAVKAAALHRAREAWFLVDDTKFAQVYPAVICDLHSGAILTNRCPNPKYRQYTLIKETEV
T3: mexT 1-304 (Pseudomonas aeruginosa); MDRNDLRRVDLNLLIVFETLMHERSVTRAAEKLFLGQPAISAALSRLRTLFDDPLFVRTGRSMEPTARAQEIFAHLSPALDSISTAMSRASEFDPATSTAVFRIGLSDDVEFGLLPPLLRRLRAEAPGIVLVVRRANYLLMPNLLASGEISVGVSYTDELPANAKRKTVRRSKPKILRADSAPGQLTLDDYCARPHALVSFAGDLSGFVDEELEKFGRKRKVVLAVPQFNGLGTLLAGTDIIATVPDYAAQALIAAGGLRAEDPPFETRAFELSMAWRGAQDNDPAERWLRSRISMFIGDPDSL
T4: vfr 1-214 (Pseudomonas syringae); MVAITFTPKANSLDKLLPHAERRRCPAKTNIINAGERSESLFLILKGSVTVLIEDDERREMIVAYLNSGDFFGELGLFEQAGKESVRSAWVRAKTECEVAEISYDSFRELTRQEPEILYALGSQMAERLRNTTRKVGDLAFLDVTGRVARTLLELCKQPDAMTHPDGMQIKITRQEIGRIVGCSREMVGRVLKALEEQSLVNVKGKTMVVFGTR
Chain of UniProt Q9WW32 (whole entry, looked up): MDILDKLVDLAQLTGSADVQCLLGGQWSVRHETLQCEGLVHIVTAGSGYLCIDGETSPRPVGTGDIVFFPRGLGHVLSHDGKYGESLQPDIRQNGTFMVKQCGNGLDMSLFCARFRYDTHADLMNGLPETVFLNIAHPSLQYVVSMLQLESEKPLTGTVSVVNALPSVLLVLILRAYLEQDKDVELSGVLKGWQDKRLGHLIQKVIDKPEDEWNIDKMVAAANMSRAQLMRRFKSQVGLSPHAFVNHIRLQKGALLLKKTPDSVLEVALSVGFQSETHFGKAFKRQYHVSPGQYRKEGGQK
Chain of UniProt Q8NP86 (whole entry, looked up): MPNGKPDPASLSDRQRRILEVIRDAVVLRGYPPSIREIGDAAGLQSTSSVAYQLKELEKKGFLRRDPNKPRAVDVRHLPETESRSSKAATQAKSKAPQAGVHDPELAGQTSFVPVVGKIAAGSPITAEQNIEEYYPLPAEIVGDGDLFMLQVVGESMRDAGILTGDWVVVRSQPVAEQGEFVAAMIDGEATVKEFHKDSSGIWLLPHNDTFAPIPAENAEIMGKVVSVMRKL

`ATCTGCTTGTTATTGTTGTTGTGCCATTAGGTAAGCAGTTGCCGTGCCAGTTTTAGGAAATCGTTATATTTCAATGAGTTGTGATTTCCAGGCTTGGCGGAAGGCAAGAAAAAACCGGGGCGTCGTTACCGATGCTCCCGGTTTTTGTTACGAACGATGCGCCGGCGGTAACAAATTACCCGGCGGCGCTACTGGACTTGCGCCGCGGAATGCCCAGGCGCTGGCGGCGTTCCCACAGGCATTTGCGGCTGATGCCGAGCTTGC (dsDNA)` — result for binding: “binds” (T1, cbrB residues 1-471 (Pseudomonas stutzeri); DNase I footprinting).
For `CCGTGATCCCTGGCTCCCCTATTAGGAGAGCTCCGCAAGGCGCTGGCACAGCCAGACCGAAGCGGTGAGAGATTCAGCCGACATTCCATTGTGGAGTGTCGGCCTTTTTGTTGTATCCCACTCTTTATGCATCCTGCCCAAAAAACAGAGCAATATTTTGTCGCTCAAACTTGGCGGAATCTGATTGATTTTGACTGAAATCATTTTCGCCTAAGGGTACAAGGCGGTCAGAACCCGCCAATGTCAATCAAAATCAATCATATAAATCGAACAAGGGGGAATGTTCCCG (dsDNA)`, binding read “binds” (T2, fruR (Faecalibacterium prausnitzii); EMSA; apo).
For `ATTGGATCCAGTACTTTTGCTTCAGCCATTGCTCTCTCCTTTCTTGAACTTTTTCTGGATGCTGCAACTCGGTTTCACGGGGTTCGCGGACCGGCGCTCAGGCGCACGCCGGGCTCGATGTTCAGGCGTTCTTCTTCTGCGCTCGAGATT (dsDNA)`, binding read “no binding” (pmiR 1-240; EMSA).
`GTATCCATTGCAAACATTCCTTTGGTGCATTATTTATTGAATTTATCATTGACGGCTGTTACACATTTTAAATATTGATATTCATGGTGCTTTTATTTTCGTGGTGAAAGGGGGTGTTTATGAATAAATATAATTATTAGGTGGTTAAGTTGATCGTTAATCCATTTTTGCTTTATCATCGTCACGTTTCACATCAATATATCTTCAATAATTATTTCTTAAGGAAAGGAACTGCTATGGC (dsDNA (Klebsiella pneumoniae); blunt)`: binding “binds” (hns 1-135 (Klebsiella pneumoniae, UniProt A0ACD7U3E5); EMSA).
`CCCTGGATAAGAACGGTCATCCGTTGCTCCTTAGCAGCGGCATCCGTCGCGACTTCGCGCGGTCGCGACAGGCCTGCCCGAGACGATGAAAATGTCCATCCTAGCCGCCCCGGACAGCCCACCGACCCTATCAGAAGATCGAGTTGACCCTGCTCGCCGACACCTCGCCGCTCGCTTTTCCTGTCCTCCAGGCCACCGGGAGTCCGGCGCGCCGGGAAGGCAAGCGTGGCCCGGGCACGGCACGCGTGGCCGGAAATCCCCGCTAGCCGCCGCCCGCCGCGGCGCT (dsDNA)`: binding “binds” (pmiR 1-240; EMSA).
`CGGCTTTTCTTTTCGCCTTATTTATCCAATTTATCGATTAAATAGAGAAAAGCTAACTATCCTTTACGAAATCTTCGACATCACAAAAATAATCAACTAACTTACTGATAAGTAATAAGAAAACACATAATCACCCATGTCTGTAGACACTATCATCGCACTTCGTTTTTAAATCGACTTATCCGAACTGAAAATGACTCCAACGCA (dsDNA (Pseudomonas aeruginosa))` — result for binding: “no binding” (T3, mexT 1-304 (Pseudomonas aeruginosa); EMSA).
`CGTTTCGGGTCGGTTTGACGAGGGCGGATTATAAAAAAGACTTTTTATCCGTGCAATCGTGTATGTATAATGAAACCCATAAAATTGAGACTGC (dsDNA (Neisseria gonorrhoeae))` — result for binding: “binds” (mtrA 1-301 (Neisseria gonorrhoeae, UniProt Q9WW32); DNase I footprinting).
Under binding, `ACATTCACTGAGGGTCAGTCGATAGAGCCAATCGCGTCTGTTGCTGTAAGCCTTTCGCCATACCCGTGTACGCCGCTAAAAAGTGTGACCGACCGCTCATGTTTGGTCATTACGCGCCGAGATGCTTGAAAGGCCCTGAATCGCGCGCTGCGCGGATCAGAGTCATCAGAAGAAAAAAAATAATGCATGGGATGCCGATCATGAGTATGCGCAGT (dsDNA (Pseudomonas syringae))` is recorded as “binds” (T4, vfr 1-214 (Pseudomonas syringae); EMSA).
Under binding, `CGTAGGCGTAGGTGGAACTCATGGCGATGATGGTCTTGTCCAGATCGAAAAAAGCAGCCACCTTTGTGGGGGTGGTCGCAGTGGTGCCCTCTACTTTTTGGGCGGGATCTGGGTGCTTCACACCGCATAGTTTAGCGCTTTTTGGCAACTTTCCAAGACTGAGAAAGAAACTAAAGTTACCAATGAGATTGAAGTGACGTGCTGGGGTTGCGCATTGGGAATGTAGAAGGCGTGCGGGAAGTGTCATTTGCCACACTGTTAAGTATTCGTG (dsDNA (Corynebacterium glutamicum))` is recorded as “no binding” (lexA full length assumed (Corynebacterium glutamicum, UniProt Q8NP86); EMSA).
`AGGACCGGGGGGCGATGTGGACACGTGCACGCGTTCACGAGCGGCGGCGCATCCCGCGGGCCGCCGCCACGCCGGCCCCGAGAGTCGAGGGGCGCACCCGCACGCGGCGCGCCCACCCGCGACGGACGCGTGTGCCGGGGTAACCGTTCCGTGACCTGCGCCACATTCATGAGAGGTGTCTGAGAACCGGGCT (dsDNA)` — result for binding: “binds” (crp 1-224 (Streptomyces coelicolor, UniProt Q9XA42); DNase I footprinting; together with: cAMP 50 µM).
Under binding, `TGATTGACCCCACGCAATCCAGGCGGTAGCTTTCGCAAACATTGTCGACACATCGACCCGGACAGCCAGTACCATGACCCAGAACCCGCCCCCTCTCGAGATTGCCCATGACGACGGAGAGACCTTGTCGGAACACGTCTTCCGCAAGATCCAGAGCGCCATCGTCAGCGGCG (dsDNA)` is recorded as “no binding” (pmiR 1-240; EMSA).
Under binding, `CGATCACTCGCTGAAGAATGGTCATGGCTATCCTCTTTTATTTTTATTGCGCTGAATCTGATCCGGGCCCGCGTGGAGAACGTCAGTCCGGAAAATGATCGCAGCGCTAAAGAGAATGTCGGCCGCACCAAGGACGACTTGAGACGTAGATCACATTATTTTTACTGGCAGGCACCACTGAAAAGGACTGCCTGACCTGAGACGTCATGCAGTCCTTTGCCTGAATACGGTTGA (dsDNA (Pseudomonas syringae))` is recorded as “binds” (T4, vfr 1-214 (Pseudomonas syringae); EMSA).
For `GCCTAAAAGAGGATATCCTTATAGCATAATTAACTAAACTTAATTAAATAAATAATATATCCTAAGGAGAGAAATG (dsDNA)`, binding read “binds” (Manganese transport regulator 1-215 (Streptococcus pyogenes, UniProt A0A0H2UTK0); EMSA; together with: Mn2+ 300 µM).
For `CAGGCGGTAGCTTTCGCAAACATTGTCGACACATCGACCCGGACAGCCAGTACCATGACCCAGAACCCGCCCCCTCTCGAGATTGCCCATGACGACGGAGAGACCTTGTCGGAACACGTCTTCCGCAAGATCCAGAGCGCCATCGTCAGCGGCG (dsDNA)`, binding read “no binding” (pmiR 1-240; EMSA).
`GTGTGACAAGATATTCCAAGGGTGCTATAATAGGAAATGAGTTAAAAAACGAACAAGCGTTTTATAAGTGTTCGGTTTTTGTAACATAACTGTAATATAAAAACATTTGCATTACTGGTAACTTTCGGGTAATATTGGTAGCAGAGAGGGACAAACGGGACAAATCGAGACACGATACATACTCTCTATACAAGTGAAAAGAAGGTGGTGCATAT (dsDNA)` — result for binding: “binds” (gp1 1-58 (Bacillus phage GIL01, UniProt Q7WSG8); DNase I footprinting; together with: gp1 200-3200 nM).

A few entries again:
For `CCGTGATCCCTGGCTCCCCTATTAGGAGAGCTCCGCAAGGCGCTGGCACAGCCAGACCGAAGCGGTGAGAGATTCAGCCGACATTCCATTGTGGAGTGTCGGCCTTTTTGTTGTATCCCACTCTTTATGCATCCTGCCCAAAAAACAGAGCAATATTTTGTCGCTCAAACTTGGCGGAATCTGATTGATTTTGACTGAAATCATTTTCGCCTAAGGGTACAAGGCGGTCAGAACCCGCCAATGTCAATCAAAATCAATCATATAAATCGAACAAGGGGGAATGTTCCCG (dsDNA)`, binding read “binds” (T2, fruR (Faecalibacterium prausnitzii); EMSA; apo).
